Experimental data pooled from the literature.
A part holds a random share of what one study measured. ± marks the error that the study gave.

Block 1 — organism: SARS-CoV-2 Wuhan spike VSV pseudovirus; effect on: pseudovirus entry; concentration: concentration not given
| Compound | inhibition [%] |
| --- | --- |
| CC(=O)OC(C(=O)Oc1ccc2c(c1)C(C)=CC(C)(C)N2)c1ccccc1 (centres unmarked) | 38 |
| Cn1ccnc1C(Nc1ncnc2c1cnn2-c1ccc(F)cc1)c1ccccc1 (centres unmarked) | 41 |
| CN1CCN(Cc2c(O)c(Cl)cc3c4c(c(=O)oc23)CCC4)CC1 | 53 |
| Cc1cccc(N2CCN(C(=O)c3cc4occc4c(Nc4ccc(F)cc4)n3)CC2)c1C | 40 |
| CCc1cc2c(N3CCCC(C(=O)N4CCN(c5ccccn5)CC4)C3)ncnc2s1 (centres unmarked) | 43 |
| CC1=CC(=O)C(CCOCCC2=CC(=O)C(C)=CC2=O)=CC1=O | 38 |
| COc1cccc2c1C(=O)c1c(O)c3c(c(O)c1C2=O)C[C@@](O)(C(=O)CO)C[C@@H]3O[C@H]1C[C@H](N)C(O)[C@H](C)O1 (some centres unmarked) | 52 |

Single results of other studies
rep papain-like protease: Replicase polyprotein 1ab, papain-like protease (rep, Severe acute respiratory syndrome coronavirus 2, UniProt P0DTD1)
rep nsp14: Replicase polyprotein 1ab, nsp14 (rep, Severe acute respiratory syndrome coronavirus 2, UniProt P0DTD1)
rep nsp12 RdRp: Replicase polyprotein 1ab, nsp12 RdRp (rep, Severe acute respiratory syndrome coronavirus 2, UniProt P0DTD1)
| SMILES | target | test | setting | scale | quantity | result |
| --- | --- | --- | --- | --- | --- | --- |
| O=C(O)CC[C@H]1CC[C@@](c2cc(F)ccc2F)(S(=O)(=O)c2ccc(Cl)cc2)CC1 | rep papain-like protease |  | concentration not given, C111S mutant | relative to: positive control | activity | 20% |
| C[S+](CC[C@H](N)C(=O)[O-])C[C@H]1O[C@@H](n2cnc3c(N)ncnc32)[C@H](O)[C@@H]1O (some centres unmarked) | rep nsp14 | thermal shift | 20 µM |  | ΔTm | 0.3 °C |
| CC1(C)[C@@H](O[C@H]2O[C@H](C(=O)O)[C@@H](O)[C@H](O)[C@H]2O[C@@H]2O[C@H](C(=O)O)[C@@H](O)[C@H](O)[C@H]2O)CC[C@]2(C)[C@H]3C(=O)C=C4[C@@H]5C[C@@](C)(C(=O)O)CC[C@]5(C)CC[C@@]4(C)[C@]3(C)CC[C@@H]12.N.N | rep nsp12 RdRp | binding, biolayer interferometry | concentration not given |  | BLI response | -0.01 nm |
| O=C(O)CCC(=O)C(=O)O | rep papain-like protease |  | concentration not given, C111S mutant | relative to: positive control | activity | 17.6% |
| CCC(CC)[C@H](NC(C)=O)[C@@H]1[C@H](O)[C@@H](C(=O)O)C[C@H]1N=C(N)N | neuraminidase (Influenza B virus, UniProt A0A1S5RAG6, H273Y) |  |  |  | IC50 | 232 ± 22.5 nM |
| O=C(NC1CCN(c2ncnc3[nH]cnc23)CC1)c1cccc(S(=O)(=O)N2CCCC2)c1 | rep nsp14 | NSP14 enzyme activity, inhibitor | 0.04883 µM |  | inhibition | 2.15% |
| COC(=O)N[C@H](C(=O)N1CC2(CC2)C[C@H]1c1ncc(-c2ccc3c(c2)C(F)(F)c2cc(-c4ccc5nc([C@@H]6[C@H]7CC[C@H](C7)N6C(=O)[C@@H](NC(=O)OC)C(C)C)[nH]c5c4)ccc2-3)[nH]1)C(C)C | rep nsp12 RdRp | binding, biolayer interferometry | concentration not given |  | BLI response | 0.01 nm |
